# Measured values of several laboratories.
# ± gives the spread as reported. Ends that are not written are not given here.
Substance,target or system,assay,test system,conditions,scale,endpoint,result
CC(C)(C)C(=O)Nc1ccc2nc(CN3CCC(N(CC(=O)N4CCCC4)C[C@H]4O[C@@H](n5cnc6c(N)ncnc65)[C@H](O)[C@@H]4O)CC3)[nH]c2c1,human DOT1L R231Q,"inhibitor, western blot, item: H3K79me2 over histone H3",H460 DOT1L R231Q,concentration not given,reference: cpd over SGC0946,H3K79me2 level ratio,1.23
Cc1ccc(CSc2nnc(COc3ccc4c(c3)NC(=O)CC4)o2)cc1,,forced swimming test,mice,"40 mg/kg, 0.5 h",reference: control,immobility duration decrease,35%
Nc1ncnc2c1c(-c1ccc3ccccc3c1)cn2[C@@H]1O[C@H](CO)C[C@H]1O,Trichomonas vaginalis,resorufin,"G3, metronidazole-sensitive","24 h + 2 h, 2% O2",,EC50,2050 ± 253 nM
C[C@]12C=CC(=O)C=C1CC[C@H]1[C@@H]3C[C@@H](O)[C@](O)(C(=O)CO)[C@@]3(C)C[C@H](O)[C@@]12F,,histology,"rat, MIA-induced osteoarthritis, tibia","intra-articular, 0.06 mg on 5, 12, 19 days after MIA, day 26",reference: vehicle,bone resorption reduction,34 to 39%
Nc1ccn(C[C@@H](CO)OCP(=O)(O)O)c(=O)n1,herpes simplex virus 2,cytopathic effect,"primary human keratinocytes, G",,,EC50,4.4 ± 2.8 µg/mL
COC(=O)c1ccc(N(C)c2nc(Cl)ccc2[N+](=O)[O-])cc1,human tumour cell panel,"cell growth, SRB",,"range over compounds, cells",,GI50,1550 to 3000 nM
Nc1ncnc2c1c(-c1ccc(C(F)(F)F)cc1)cn2[C@@H]1O[C@H](CO)[C@@H](O)[C@H]1O,Trichomonas vaginalis,resorufin,"G3, metronidazole-sensitive","24 h + 2 h, 2% O2",,EC50,180 ± 50 nM
CC(=NNC(=S)NN=C(C(=NO)c1ccccc1)c1ccccc1)c1ccccc1C,MCF7,"Western blot, item: iNOS",,"IC50 concentration, 24 h",reference: untreated,relative protein level,0.63 ± 0.06
"KCNTATCATQRLANFLVHSSNNFGPILPPTNVGSNTY (Pramlintide; not fully specified (C-terminus, bridges); cysteine pairing not given here; sequence looked up)",,,"peptide, obese or overweight humans","dose not given, 24 weeks",reference: initial weight,body weight loss,~8%
CC1CCN(C(=O)CN(C[C@H]2O[C@@H](n3cnc4c(N)ncnc43)[C@H](O)[C@@H]2O)C2CCN(Cc3nc4ccc(NC(=O)C(C)(C)C)cc4[nH]3)CC2)CC1,human DOT1L R231Q,"inhibitor, western blot, item: H3K79me2 over histone H3",H460 DOT1L R231Q,concentration not given,reference: cpd over SGC0946,H3K79me2 level ratio,1.33
CCOC(=O)c1c(N)csc1-c1cn(-c2ccccc2)nc1-c1ccc(C)cc1,Klebsiella pneumoniae,broth microdilution,clinical urinary isolate,compound gamma-irradiated 10 kGy,,MIC,0.123 ± 0.3 µg/mL
Nc1ncnc2c1ncn2CCOCP(=O)(O)O,herpes simplex virus 2,cytopathic effect,"HEL, G",,,EC50,3.6 ± 0.1 µg/mL
O=c1ccc2ccccc2o1,CYP2A6 human,"7-hydroxylation, substrate",human liver microsomes,"CYP2A6 added 216 pmol/mg, ratio 0.5",,Vmax,38.9 ± 16.2 min⁻¹
Nc1ncnc2c1c(-c1ccc3ccccc3n1)cn2C1OC(CO)C(O)C1O (centres unmarked),Trichomonas vaginalis,resorufin,"G3, metronidazole-sensitive","24 h + 2 h, 2% O2",,EC50,2270 ± 272 nM

# A few entries again:
Substance,target or system,assay,test system,conditions,scale,endpoint,result
Nc1ccn(C[C@@H](CO)OCP(=O)(O)O)c(=O)n1,herpes simplex virus 2,cytopathic effect,"primary human keratinocytes, G",,,EC50,4.4 ± 2.8 µg/mL
CC(=NNC(=S)NN=C(C(=NO)c1ccccc1)c1ccccc1)c1ccccc1C,MCF7,"Western blot, item: iNOS",,"IC50 concentration, 24 h",reference: untreated,relative protein level,0.63 ± 0.06
